Measurements of several laboratories.
Each numbered part is a random draw from the data of one study; scales do not carry over between parts.

Study 1
Target: Transcriptional repressor CTCF (CTCF, Homo sapiens, UniProt P49711, residues 1-727, full length assumed)
Technique: protein-binding microarray
Molecule type: double-stranded DNA, one strand shown
Matrix: in vitro
Tested at: not given
Notes: k-mer, scored over probes, only values ≥0.25
Reading: higher = stronger binding
Construct (chain): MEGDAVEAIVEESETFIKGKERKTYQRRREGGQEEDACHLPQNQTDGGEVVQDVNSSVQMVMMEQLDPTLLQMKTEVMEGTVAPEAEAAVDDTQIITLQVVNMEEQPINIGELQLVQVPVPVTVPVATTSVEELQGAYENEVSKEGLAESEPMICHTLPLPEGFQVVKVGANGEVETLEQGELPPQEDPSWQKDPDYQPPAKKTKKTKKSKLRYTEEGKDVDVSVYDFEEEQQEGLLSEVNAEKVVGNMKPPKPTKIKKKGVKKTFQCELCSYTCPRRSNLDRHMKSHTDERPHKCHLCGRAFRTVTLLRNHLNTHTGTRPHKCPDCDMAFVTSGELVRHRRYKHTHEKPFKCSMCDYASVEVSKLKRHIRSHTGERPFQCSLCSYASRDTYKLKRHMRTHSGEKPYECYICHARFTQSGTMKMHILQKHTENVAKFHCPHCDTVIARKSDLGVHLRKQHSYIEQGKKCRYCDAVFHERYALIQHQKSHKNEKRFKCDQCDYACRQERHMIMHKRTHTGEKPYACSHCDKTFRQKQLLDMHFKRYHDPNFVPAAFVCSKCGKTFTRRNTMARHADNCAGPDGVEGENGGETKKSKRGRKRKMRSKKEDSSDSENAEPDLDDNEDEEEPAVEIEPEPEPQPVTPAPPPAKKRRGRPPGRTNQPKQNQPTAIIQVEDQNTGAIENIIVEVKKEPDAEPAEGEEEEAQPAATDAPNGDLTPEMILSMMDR
Sequence	E-score
AATGCATT	0.367
GTATCATA	0.279
ACATAAAT	0.288
AAAATTAC	0.253
GCGCAATA	0.377
ATGCACAT	0.284
ATTTGTCG	0.26
ATGCATCA	0.263
ATCACATA	0.271
ACGCCCCC	0.39
TCCATAAA	0.259
ATGTATTA	0.341
TATAACAA	0.31
AATTATCC	0.275
ATTAGTTA	0.32
CGAAATAA	0.281
TAGCGCCA	0.371
GGTGGGGA	0.375
ATAACAAG	0.306

Study 2
Target: Sal-like protein 4, full length isoform B (SALL4, Homo sapiens, UniProt Q9UJQ4-2, residues 1-616)
Technique: universal PBM
Molecule type: double-stranded DNA, one strand shown
Matrix: in vitro
Tested at: not given
Notes: 8-mer, flanks averaged, mean of replicates
Reading: higher = stronger binding
Sequence	E-score
CTGCTACA	-0.0752
CAGATCTC	-0.213
ACGCTACC	-0.206
CTGTACAA	0.181
GAGACACA	-0.00631
CGTAGTGA	-0.116
CAGAGTGG	-0.186
CAGAAGCC	-0.159
CTAAAGAC	-0.0873
CGCGAAGC	-0.129
AGTCGCAG	-0.11
GTGGTAAC	0.114
ACCCGAGG	-0.128
TACATCTA	0.23
AGGACGTG	-0.0915
AAAATACC	0.153
ACCTATTC	0.0199
ATATCACC	0.316

Study 3
Target: RING finger protein unkempt homolog, zinc fingers 1-6, GST-SBP tag (UNK, Homo sapiens, UniProt Q9C0B0, residues 30-357)
Technique: RNA Bind-n-Seq
Molecule type: RNA
Matrix: in vitro
Tested at: not given
Notes: RNA with constant flanks, ends assumed
Relative to: input RNA pool
Reading: higher = stronger binding
Constant ends, left off below: GGGAGUUCUACAGUCCGACGAUC … CAACAGAGGAUUGAGCAUCA
Construct (chain): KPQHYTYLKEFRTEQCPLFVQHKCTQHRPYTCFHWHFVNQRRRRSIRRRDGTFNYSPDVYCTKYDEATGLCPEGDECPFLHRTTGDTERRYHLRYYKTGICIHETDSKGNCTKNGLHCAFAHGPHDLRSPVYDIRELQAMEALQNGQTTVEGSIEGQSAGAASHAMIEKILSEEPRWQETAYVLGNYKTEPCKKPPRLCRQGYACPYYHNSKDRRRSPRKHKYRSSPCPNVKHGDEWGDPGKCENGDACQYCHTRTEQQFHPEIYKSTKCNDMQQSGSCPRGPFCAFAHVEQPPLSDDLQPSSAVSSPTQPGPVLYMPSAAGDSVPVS
Sequence	bound/input enrichment [ratio]
AUGCUCUAACUGGACAUGAAGGAAAGGGGCGAGGGAGGGGGGUGGGAUUUUUGGUGCAAGCCGCACAUGGUUUAAAUAUGAAUGAACAAACCUGUGAUCUAGUCCUUGUCUUGUAAUUGU	0.194
UCAAAAUUCUUCUCUGCCUACAAAAGUCAUUUCCGCAAUGUCCAUAGUGAAGACUUUGAAAACCGGAUUCUCCUUAAUUGCCCCUACUGUACCUUCAAUGCAGACAAAAAGACUUUGGAA	0.0678
AGAGGCUGAGAGUCCCCCCCACGGUUUUUUUUUUUCUUCAUUUAGAUGUAACAAGCCCCGCCGUUUAUGUUCAUCAAUUGUCUGUAUAUCUAUAUUUUACCCAUGUACUCUUUUGAUGUA	2.22
AGCAAAGAAGAAGUUAUCAAGUUCUUGGAAAAUACUCCAUCCAGUCUGAAUAUAGAAGAUACCGAAGACCUUUUCUCUCUGGCUCAGUAUUAUUGCAGCAAAACACCGGCUUCUUUUAGG	0.295
CUUUGUCUAGCAAAUAAAAGAUGUUAAUAUAUUCCUGUUAUUGGCAUGUGCACGACUGUUAUCCGAAGCCACUUUAUCAUUUUCCUGCUUUAAAUAGAAAUGUCUAUUUAUGAAUUCUGC	1.02
AGACCAUGAAUUAUGGAAUUUCCUAAAUGAAGCAUUCAGGAAUGGAAUGAGAGAAUGUCACACCGAAAAUAAAUGAUUUUUAAGUUAUGUCUAUUAAUUUGACUCUAGAUAUAUAUAUUU	6.77
AAUCCGUAUGUUUAUACUUCUAAAUCUGCCUGAGUGACCUUGAAAAGGGAACCAGUGUGUUCCGGAGAAAAAAGCAACAGGAUACAAACCAAAGUCUUUUAUAAUUGUGGCAAGAGUUGA	0.151
UUGGAGCAGCCCGUGGUGGUGCAGAGCGUGGGCACGGAUGGACGUGUCUUCCAUUUCCCCGUGUUUCAACUGAAUACCACAGACCUGGACUGUAACGAGGGUGUCAAGAAUUUGGCCUGG	0.0936
CCAGUUUGUAUGUACAUUAUUCAUAUUCCUCUCUGUUGUGUUUCGGGGGGAAAAGACAUUUCCGCCUUUUUUAAAAGUUACUGAUUUAAUUUCAUGUUAUUUGGUUGCAUGAAGUUGCCC	0.522
UAAAUUAGGGCUGCCGUUUUCUGUUUCUCCCUGGGCUGCGGAAAGCCAGAAGAUUUUAUCCCGCUUAUACAAGGCUGCUGGUGUUCCCUCUUUUUUUCCACGAGGGUGUUUUUGGCUGCA	0.724
GCAGAUUACAAUGGCAGAUUGGCGGCAGAAAUAGAUGAUAGAAAGCAACUCACUCGAAUGUCCGCAGAUUUUCUUCGUUGUCAAAAGGAAGCCCUUGCAGAGAAAGAGCAUAAAUUGGAA	0.744

Study 4
Target: RNA binding protein fox-1 homolog 2, RRM domain, GST-SBP tag (RBFOX2, Homo sapiens, UniProt O43251-10, residues 100-194)
Technique: RNA Bind-n-Seq
Molecule type: RNA
Matrix: in vitro
Tested at: 365 nM
Notes: natural RNA segment, single round, ends assumed
Relative to: no-protein control
Reading: higher = stronger binding
Constant ends, left off below: GGGAGUUCUACAGUCCGACGAUC … UGGAAUUCUCGGGUGCCAA
Construct (chain): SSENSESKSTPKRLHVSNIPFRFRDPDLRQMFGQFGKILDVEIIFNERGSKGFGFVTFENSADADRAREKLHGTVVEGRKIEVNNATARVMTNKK
Sequence	RBNS enrichment (R)
UCAAAGGCGAUUUAUCACAUGUAUAGAACAGGCCAAGUGUAGAAAAACAUAGAAGUCAUUGUUAGUCUUGAAUUCAGCAAGCGUUAAUCAAUCUAUAUUUAAUUCAGUUC	0.547
GAAGUCAGAACAGAAGGAGGACGCUGGAGGGCCUUGCUGGCUACCGCUAUCUAAAGGGAACCCCCAUUUCUGACCCAUUAGUAGUCUUGAAUGUGGGGCUCUGAGAUAAA	0.485
GGCAGCUUUCCAAAGGGCCUAAAACACCAGGACUGCCUCUGUGAAAGGCCCGAGUGGCUUUGAUGCAGUUGGUAACCACUUGAGAGCAGAGAUGUCUUAACUUGUCAGGA	0.249
AUCUUCAGGACUGCAAUCAUUCUGCCUAUAGGUCAGAACUGAGCUAGGAUGGAAUCUUGAAACAUAUUCUGACCUCCAAUGAAAAGAUAUGGGCAUACAAGGUGAGUUGU	0.361
UUGGUUCCAAGUCUUUGCUAUUGUGAAUAAUGCCGCAAUAAACAUACGUGUGCAUGUGUCUUUAUAGCAGCAUGAUUUAUAGUCAUUUGGGUAUAUACCCAGUAAUGGGA	0.366
AAUCCUAGCAGGAGAGAGGCUCUGGGGCAGCCCCCAUGGGCUCCUGCCCCUUUCAGGCCUACAGCCACAUCCCCAAGCCCACCAGGUGUCAGGAUAGUCACAGUGAUACC	0.327
CAGCUGCCCCAUUCUUUUAACGUUGUAGGGCCUGCCCAUGGAGCGGACCCUCCUCUUUGGGCCUCGUGAGCUUUUUUGCUUAUCAUGUUCCAUUUCGUGCCGCUUUCCCC	0.399
ACCAGGAAGGCUGUGUGGGUCUGGAGCCCACGUCCCACCUCCACACCCUUGGCUUGGGCCCAUGCCCAGCGCAGGCCUGAAGACCACCCUCCCGAGAGGAACCAGCCCGG	0.324
GGCCAACCUGCCUUUCCCCAGAAGGAGUGAUUUUUCUAUCGGCACAAAAGCACUAUAUGGACUGGUAAUGGUUACAGGUUCAGAGAUUACCCAGUGAGGCCUUAUUCCUC	0.383
AAGGAAUCAGUUACUAUUUAAGUUUGUUUUACAAUGCAAUAAAAGAUACAAGCUGCAGAGAAAAGUAAACUCUGCAAAGAACACUGGUAAUAAUUGUUCUGCAAAGGUUA	0.435
AGCAGGCCUGCGUUGCCAGGGAGUACCCCAGCCCCUUUCCCUUCUUGGGCUGCUACCGCCGCCACCACCGUCACCACCAUCUGUCCAGUGCUACUGUCUGUGCCCUCCUA	0.511
UUCCUGGGGUCCUAAUUAACUCGGCCUACUCAAUGAGAACGUAACAUGCUUAUUGAAUGUAUAGCCGUGUUUGCUGAGUAACCUGUCCCACCGUUGAGGCUAUCUGAAGU	0.362

Study 5
Target: Interferon regulatory factor 3, full length, phosphomimetic (IRF3, Homo sapiens, UniProt Q14653, residues 1-427, S386D/S396D/S398D/S402D/T404D/S405D)
UniProt Q14653, sequence (whole entry, unmodified, looked up): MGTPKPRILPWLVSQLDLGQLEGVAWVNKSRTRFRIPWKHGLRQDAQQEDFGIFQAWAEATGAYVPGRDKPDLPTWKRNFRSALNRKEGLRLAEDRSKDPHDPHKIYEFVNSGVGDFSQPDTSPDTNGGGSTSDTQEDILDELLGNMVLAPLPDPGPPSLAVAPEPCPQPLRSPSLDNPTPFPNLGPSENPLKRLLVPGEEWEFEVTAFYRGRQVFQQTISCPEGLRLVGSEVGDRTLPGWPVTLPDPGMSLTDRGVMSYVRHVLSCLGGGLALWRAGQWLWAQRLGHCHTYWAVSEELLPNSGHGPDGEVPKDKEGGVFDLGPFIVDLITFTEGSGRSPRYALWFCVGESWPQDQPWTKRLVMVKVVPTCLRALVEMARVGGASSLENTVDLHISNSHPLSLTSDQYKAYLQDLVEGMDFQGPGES
Technique: protein-binding microarray
Molecule type: double-stranded DNA, one strand shown
Matrix: in vitro
Tested at: 2540 nM top
Notes: 60-bp whole probe
Together with: salmon DNA 0.4 mg/ml
Relative to: random background probes
Reading: higher = stronger binding
Constant ends, left off below: GCCTAGCAC … GTCTTGATTCGCTTGACGCTGCTG
Sequence	fitted relative affinity [z-score]
TCAATATTCACTATAGTACTGTGCTAG	0.598
TCAGCTTTAGTCATTCACACTGTGCTA	-0.196
TTAGATTGCAGTTCCGATTAGTGCTAG	2.23
TTAGGACTGCTACAGCTTTAGTGCTAG	-0.67
TCAAGTCTTCTCCTCTAACTGTGCTAG	-0.335
TTAGGACTGGGGTTCCGGTTAGTGCTA	-0.00164
GACGGACTGGACACCGGGGACGTGCTA	-0.806
TTAGGTATCCTTCTCCGTTAGTGCTAG	6.44
AACGATTTCAGACTGGAGACGTGCTAG	0.643
GACGGTTTCCGTCTCGGGACGTGCTAG	7.41
TTAGGACAGGGTCTCGGTTAGTGCTAG	-0.508
CAAGTTTCTCCTTTGTAAATGTGCTAG	2.32
TTAGGACTGGGTATCGGTGAGTGCTAG	-0.41
TTAGGACTGGGACTGGGTTAGTGCTAG	-0.941
TCTCTTTTCACTTTCTTTACGTGCTAG	3.42
GGCGGTCTCCTTTTCCTGACGTGCTAG	4.42
CCAGGGCTGCCAGCCTCCTCGTGCTAG	-0.909

Some of these lines once more (study 4):
Sequence	RBNS enrichment (R)
GAAGUCAGAACAGAAGGAGGACGCUGGAGGGCCUUGCUGGCUACCGCUAUCUAAAGGGAACCCCCAUUUCUGACCCAUUAGUAGUCUUGAAUGUGGGGCUCUGAGAUAAA	0.485
GGCAGCUUUCCAAAGGGCCUAAAACACCAGGACUGCCUCUGUGAAAGGCCCGAGUGGCUUUGAUGCAGUUGGUAACCACUUGAGAGCAGAGAUGUCUUAACUUGUCAGGA	0.249
AUCUUCAGGACUGCAAUCAUUCUGCCUAUAGGUCAGAACUGAGCUAGGAUGGAAUCUUGAAACAUAUUCUGACCUCCAAUGAAAAGAUAUGGGCAUACAAGGUGAGUUGU	0.361
UUGGUUCCAAGUCUUUGCUAUUGUGAAUAAUGCCGCAAUAAACAUACGUGUGCAUGUGUCUUUAUAGCAGCAUGAUUUAUAGUCAUUUGGGUAUAUACCCAGUAAUGGGA	0.366
AAUCCUAGCAGGAGAGAGGCUCUGGGGCAGCCCCCAUGGGCUCCUGCCCCUUUCAGGCCUACAGCCACAUCCCCAAGCCCACCAGGUGUCAGGAUAGUCACAGUGAUACC	0.327
CAGCUGCCCCAUUCUUUUAACGUUGUAGGGCCUGCCCAUGGAGCGGACCCUCCUCUUUGGGCCUCGUGAGCUUUUUUGCUUAUCAUGUUCCAUUUCGUGCCGCUUUCCCC	0.399
ACCAGGAAGGCUGUGUGGGUCUGGAGCCCACGUCCCACCUCCACACCCUUGGCUUGGGCCCAUGCCCAGCGCAGGCCUGAAGACCACCCUCCCGAGAGGAACCAGCCCGG	0.324
GGCCAACCUGCCUUUCCCCAGAAGGAGUGAUUUUUCUAUCGGCACAAAAGCACUAUAUGGACUGGUAAUGGUUACAGGUUCAGAGAUUACCCAGUGAGGCCUUAUUCCUC	0.383
AAGGAAUCAGUUACUAUUUAAGUUUGUUUUACAAUGCAAUAAAAGAUACAAGCUGCAGAGAAAAGUAAACUCUGCAAAGAACACUGGUAAUAAUUGUUCUGCAAAGGUUA	0.435
